# Results collected from several papers.
# Parts stem from different laboratories: compare values within a part only.

# Block 1 — method: competition protein-binding microarray; molecule type: double-stranded DNA, one strand shown; sample: in vitro; concentration: 2 µM; with: Cbf1 competitor, 0.05 µM; direction: higher = stronger binding
# Target: Phosphate system positive regulatory protein PHO4, full length, GST-tagged (PHO4, Saccharomyces cerevisiae, UniProt P07270, residues 1-312)
# Setting: whole 60-bp probe, lowest competitor level
# Construct (chain): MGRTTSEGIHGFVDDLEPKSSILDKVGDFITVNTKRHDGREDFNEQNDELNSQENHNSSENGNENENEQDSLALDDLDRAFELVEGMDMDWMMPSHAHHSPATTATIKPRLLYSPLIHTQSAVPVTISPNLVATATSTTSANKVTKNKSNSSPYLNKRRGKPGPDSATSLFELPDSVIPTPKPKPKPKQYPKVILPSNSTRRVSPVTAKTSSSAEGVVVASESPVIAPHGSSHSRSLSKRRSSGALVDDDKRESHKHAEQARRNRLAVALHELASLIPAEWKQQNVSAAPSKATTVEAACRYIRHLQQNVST
Strand,fluorescence intensity [a.u.]
ACTTTGCAAAAAAAGCACGCAGCAGGAAGCTCTTGAGTCTTGATTCGCTTGACGCTGCTG,9390
CTTCTGTAAATTTGCTTTGTGGGTGGACGCGCCCCGGTCTTGATTCGCTTGACGCTGCTG,3820
CCGGAACTGACTTTTATCGTGATGGGAACTTTGGGTGTCTTGATTCGCTTGACGCTGCTG,3380
CTGTTTCTTCTCCATACTTTCAAATATTCAAATTGAGTCTTGATTCGCTTGACGCTGCTG,4070

# Block 2 — method: RNAcompete; molecule type: RNA; sample: in vitro; concentration: 20 nM; setting: 7-mer, probes averaged, single round; relative to: mean of 7-mers; direction: higher = stronger binding
# Target: PABPC1L2, full length, GST fusion (mouse, UniProt A0ABA7IW68)
# Target sequence (chain): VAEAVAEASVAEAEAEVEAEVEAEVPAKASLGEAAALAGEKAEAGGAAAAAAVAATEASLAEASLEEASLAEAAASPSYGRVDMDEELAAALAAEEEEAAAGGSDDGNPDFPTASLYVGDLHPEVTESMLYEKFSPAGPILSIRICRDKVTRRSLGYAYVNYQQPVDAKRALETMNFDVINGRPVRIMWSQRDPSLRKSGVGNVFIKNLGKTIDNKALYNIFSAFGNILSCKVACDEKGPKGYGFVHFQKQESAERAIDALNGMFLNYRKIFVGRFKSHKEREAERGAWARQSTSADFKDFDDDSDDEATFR
Strand,7-mer Z-score
UGAGCCC,-0.373
CUCGUUG,-0.44
GAAGCGU,-0.253
AACGUUU,-0.28
CUCUAUG,-0.244

# Block 3 — method: protein-binding microarray; molecule type: double-stranded DNA, one strand shown; sample: in vitro; concentration: 2200 nM top; setting: 60-bp whole probe; with: salmon DNA 0.4 mg/ml; relative to: random background probes; direction: higher = stronger binding; constant ends, left off below: GCCTAGCAC … GTCTTGATTCGCTTGACGCTGCTG
# Target: Interferon regulatory factor 7, full length, phosphomimetic (IRF7, Homo sapiens, UniProt Q92985, residues 1-503, S471D/S472D/S475D/S476D/S477D/S483D/S484D/S487D)
# Target sequence (chain): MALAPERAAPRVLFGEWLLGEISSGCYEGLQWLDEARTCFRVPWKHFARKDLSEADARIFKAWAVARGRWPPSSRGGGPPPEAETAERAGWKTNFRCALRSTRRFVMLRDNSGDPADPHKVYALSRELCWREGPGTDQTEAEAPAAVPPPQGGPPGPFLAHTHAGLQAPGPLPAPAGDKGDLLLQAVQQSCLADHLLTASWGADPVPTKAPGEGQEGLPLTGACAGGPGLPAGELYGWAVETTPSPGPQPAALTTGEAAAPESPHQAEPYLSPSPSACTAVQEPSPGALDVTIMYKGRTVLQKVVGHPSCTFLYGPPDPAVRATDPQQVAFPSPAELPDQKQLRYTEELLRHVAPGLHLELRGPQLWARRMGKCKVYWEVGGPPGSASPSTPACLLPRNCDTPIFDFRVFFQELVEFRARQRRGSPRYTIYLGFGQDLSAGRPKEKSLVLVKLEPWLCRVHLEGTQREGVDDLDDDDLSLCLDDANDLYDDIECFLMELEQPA
Strand,fitted relative affinity [z-score]
TCTTATATACCTGTATATCTGTGCTAG,1.05
TTAGGTATCGGGTATTGGTTAGTGCTA,0.596
GACGATTTCGGGTATCGAGCCGTGCTA,2.69
TCATCTCTGTCCCTGTTACTGTGCTAG,2.55
GACGATATCAGACTGGAGAAGTGCTAG,-0.298

# Other studies, line by line
Molecule,target,assay,system,setting,how to read,endpoint,value
"PhoQ, residues 284 288 289 292 302 303 NSMLDC","PhoP, residues 12 14 15 18 19 STWGI (Escherichia coli, UniProt P23836)","Sort-seq, refers to: YFP reporter",E. coli,"PhoQ-PhoP variant library, with: 10 µM Mg2+","relative to: high Mg2+ state, higher = stronger signaling",fold induction,5.51

# For quick reference, copied from above (block 1):
Strand,fluorescence intensity [a.u.]
ACTTTGCAAAAAAAGCACGCAGCAGGAAGCTCTTGAGTCTTGATTCGCTTGACGCTGCTG,9390
CTTCTGTAAATTTGCTTTGTGGGTGGACGCGCCCCGGTCTTGATTCGCTTGACGCTGCTG,3820
